Results of several laboratories.
Every numbered part comes from another study and shows a few of its results, in no order. Changes are numbered by the printed parent chain.
Sequence of UniProt Q99640 (whole entry, looked up): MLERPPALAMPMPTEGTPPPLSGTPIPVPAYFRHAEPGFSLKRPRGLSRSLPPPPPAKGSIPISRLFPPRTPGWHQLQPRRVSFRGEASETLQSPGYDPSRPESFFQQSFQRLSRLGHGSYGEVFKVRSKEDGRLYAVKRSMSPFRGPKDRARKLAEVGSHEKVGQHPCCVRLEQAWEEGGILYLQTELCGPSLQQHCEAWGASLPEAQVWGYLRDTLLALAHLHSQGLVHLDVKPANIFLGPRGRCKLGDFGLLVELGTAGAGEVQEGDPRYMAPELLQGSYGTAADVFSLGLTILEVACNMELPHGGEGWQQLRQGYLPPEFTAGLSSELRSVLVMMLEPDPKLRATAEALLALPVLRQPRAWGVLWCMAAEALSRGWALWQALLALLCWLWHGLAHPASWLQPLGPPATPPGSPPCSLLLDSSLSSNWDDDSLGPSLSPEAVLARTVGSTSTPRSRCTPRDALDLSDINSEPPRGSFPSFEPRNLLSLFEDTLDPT
Sequence of UniProt O75582 (whole entry, looked up): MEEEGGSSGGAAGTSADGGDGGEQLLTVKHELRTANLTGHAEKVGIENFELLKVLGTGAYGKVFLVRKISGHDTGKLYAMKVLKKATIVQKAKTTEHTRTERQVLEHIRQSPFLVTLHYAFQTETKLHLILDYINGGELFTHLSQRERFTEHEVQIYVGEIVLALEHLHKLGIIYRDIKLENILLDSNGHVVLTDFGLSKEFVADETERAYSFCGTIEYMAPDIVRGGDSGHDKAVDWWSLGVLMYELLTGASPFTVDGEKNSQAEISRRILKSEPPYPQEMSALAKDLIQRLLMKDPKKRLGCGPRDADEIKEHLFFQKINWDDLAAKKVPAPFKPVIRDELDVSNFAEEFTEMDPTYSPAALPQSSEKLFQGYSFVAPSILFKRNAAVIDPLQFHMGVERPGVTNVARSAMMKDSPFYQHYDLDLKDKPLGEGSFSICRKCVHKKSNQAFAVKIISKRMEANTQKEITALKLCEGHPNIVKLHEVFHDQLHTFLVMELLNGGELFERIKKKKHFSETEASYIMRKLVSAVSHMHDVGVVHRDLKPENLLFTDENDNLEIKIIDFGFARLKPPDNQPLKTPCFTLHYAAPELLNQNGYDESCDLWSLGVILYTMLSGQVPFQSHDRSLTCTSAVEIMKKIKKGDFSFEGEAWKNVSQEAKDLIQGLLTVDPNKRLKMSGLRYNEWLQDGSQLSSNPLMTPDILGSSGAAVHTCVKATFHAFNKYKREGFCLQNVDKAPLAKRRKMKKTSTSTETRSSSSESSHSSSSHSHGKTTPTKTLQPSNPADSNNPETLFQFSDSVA
Sequence of UniProt P42336 (whole entry, unmodified, looked up): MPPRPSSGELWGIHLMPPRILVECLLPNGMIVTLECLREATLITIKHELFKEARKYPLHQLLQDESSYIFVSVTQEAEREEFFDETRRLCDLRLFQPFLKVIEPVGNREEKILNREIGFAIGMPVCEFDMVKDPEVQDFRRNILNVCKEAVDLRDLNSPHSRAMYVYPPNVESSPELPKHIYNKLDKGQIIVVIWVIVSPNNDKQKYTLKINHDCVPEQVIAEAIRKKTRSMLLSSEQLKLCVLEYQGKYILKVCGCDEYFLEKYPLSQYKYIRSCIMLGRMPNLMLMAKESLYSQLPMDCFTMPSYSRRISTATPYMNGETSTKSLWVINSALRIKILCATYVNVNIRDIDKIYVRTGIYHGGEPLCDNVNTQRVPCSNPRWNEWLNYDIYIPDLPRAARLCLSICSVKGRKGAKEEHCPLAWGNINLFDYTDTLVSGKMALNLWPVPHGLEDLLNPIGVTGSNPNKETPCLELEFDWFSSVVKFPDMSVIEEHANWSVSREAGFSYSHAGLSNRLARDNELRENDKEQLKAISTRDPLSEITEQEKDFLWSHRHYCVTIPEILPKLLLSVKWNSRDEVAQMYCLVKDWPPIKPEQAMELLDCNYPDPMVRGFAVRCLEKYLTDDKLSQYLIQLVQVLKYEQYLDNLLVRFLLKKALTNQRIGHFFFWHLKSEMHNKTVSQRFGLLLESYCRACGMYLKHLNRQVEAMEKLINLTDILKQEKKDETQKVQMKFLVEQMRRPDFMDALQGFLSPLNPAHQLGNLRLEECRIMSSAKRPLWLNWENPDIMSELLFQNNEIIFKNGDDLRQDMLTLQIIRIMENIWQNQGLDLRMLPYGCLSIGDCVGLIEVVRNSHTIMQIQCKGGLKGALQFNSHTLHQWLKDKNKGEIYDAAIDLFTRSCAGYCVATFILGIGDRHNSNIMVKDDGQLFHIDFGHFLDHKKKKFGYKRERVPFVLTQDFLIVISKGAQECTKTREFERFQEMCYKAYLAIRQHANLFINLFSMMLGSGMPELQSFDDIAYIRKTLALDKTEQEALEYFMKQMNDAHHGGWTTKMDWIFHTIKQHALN
Sequence of UniProt O95835 (whole entry, looked up): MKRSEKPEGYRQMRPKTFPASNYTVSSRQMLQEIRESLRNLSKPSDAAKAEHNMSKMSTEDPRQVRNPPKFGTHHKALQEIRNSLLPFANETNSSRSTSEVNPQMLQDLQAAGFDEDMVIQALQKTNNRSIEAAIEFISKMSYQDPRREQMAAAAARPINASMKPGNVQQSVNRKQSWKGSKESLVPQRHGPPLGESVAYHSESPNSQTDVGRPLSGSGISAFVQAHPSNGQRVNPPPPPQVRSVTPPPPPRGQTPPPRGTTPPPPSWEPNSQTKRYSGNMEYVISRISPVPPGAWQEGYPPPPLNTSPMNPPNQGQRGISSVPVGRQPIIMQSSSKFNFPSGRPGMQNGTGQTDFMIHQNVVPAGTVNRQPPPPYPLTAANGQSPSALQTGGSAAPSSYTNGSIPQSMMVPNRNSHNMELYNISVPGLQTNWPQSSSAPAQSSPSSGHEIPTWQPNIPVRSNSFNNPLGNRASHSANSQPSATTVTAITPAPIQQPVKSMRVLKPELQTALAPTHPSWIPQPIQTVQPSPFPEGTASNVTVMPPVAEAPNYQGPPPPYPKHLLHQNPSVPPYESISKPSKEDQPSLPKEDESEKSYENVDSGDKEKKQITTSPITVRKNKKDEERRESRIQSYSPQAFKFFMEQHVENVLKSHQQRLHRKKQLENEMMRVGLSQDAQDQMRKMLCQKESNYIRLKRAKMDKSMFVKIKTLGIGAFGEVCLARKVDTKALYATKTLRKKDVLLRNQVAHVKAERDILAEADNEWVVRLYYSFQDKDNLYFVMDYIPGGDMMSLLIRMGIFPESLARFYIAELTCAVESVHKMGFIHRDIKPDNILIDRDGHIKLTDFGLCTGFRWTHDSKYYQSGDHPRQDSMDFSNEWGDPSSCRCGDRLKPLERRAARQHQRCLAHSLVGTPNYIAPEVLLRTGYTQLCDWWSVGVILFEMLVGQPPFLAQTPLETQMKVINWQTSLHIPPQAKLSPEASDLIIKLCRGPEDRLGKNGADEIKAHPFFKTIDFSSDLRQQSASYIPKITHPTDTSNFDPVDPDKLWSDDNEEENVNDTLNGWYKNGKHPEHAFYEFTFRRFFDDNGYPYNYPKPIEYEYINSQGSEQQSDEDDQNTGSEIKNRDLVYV
Sequence of UniProt P29317 (whole entry, looked up): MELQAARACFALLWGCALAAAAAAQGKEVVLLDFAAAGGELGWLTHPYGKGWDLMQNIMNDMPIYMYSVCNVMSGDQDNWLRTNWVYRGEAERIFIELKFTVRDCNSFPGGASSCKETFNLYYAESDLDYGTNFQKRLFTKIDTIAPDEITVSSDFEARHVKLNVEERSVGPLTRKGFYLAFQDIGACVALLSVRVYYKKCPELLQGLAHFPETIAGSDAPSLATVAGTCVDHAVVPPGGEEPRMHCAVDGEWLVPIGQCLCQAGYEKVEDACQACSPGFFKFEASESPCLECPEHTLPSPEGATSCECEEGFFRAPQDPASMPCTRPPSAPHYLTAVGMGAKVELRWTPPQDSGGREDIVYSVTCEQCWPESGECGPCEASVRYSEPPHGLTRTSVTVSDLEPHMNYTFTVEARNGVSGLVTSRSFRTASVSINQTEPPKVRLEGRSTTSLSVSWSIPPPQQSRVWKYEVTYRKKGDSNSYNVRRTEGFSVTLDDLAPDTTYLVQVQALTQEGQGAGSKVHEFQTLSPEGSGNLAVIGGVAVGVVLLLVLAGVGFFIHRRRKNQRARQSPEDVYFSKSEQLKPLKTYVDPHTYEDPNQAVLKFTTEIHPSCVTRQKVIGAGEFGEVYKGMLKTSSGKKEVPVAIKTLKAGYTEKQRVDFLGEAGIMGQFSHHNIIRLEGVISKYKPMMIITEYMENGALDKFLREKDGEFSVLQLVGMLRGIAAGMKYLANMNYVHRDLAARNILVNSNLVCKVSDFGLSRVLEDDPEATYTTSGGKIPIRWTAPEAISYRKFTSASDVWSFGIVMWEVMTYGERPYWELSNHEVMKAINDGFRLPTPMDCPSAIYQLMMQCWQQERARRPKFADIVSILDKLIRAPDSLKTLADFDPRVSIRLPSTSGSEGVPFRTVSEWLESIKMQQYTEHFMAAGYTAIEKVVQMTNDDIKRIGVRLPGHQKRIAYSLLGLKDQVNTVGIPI
Sequence of UniProt O43353 (whole entry, looked up): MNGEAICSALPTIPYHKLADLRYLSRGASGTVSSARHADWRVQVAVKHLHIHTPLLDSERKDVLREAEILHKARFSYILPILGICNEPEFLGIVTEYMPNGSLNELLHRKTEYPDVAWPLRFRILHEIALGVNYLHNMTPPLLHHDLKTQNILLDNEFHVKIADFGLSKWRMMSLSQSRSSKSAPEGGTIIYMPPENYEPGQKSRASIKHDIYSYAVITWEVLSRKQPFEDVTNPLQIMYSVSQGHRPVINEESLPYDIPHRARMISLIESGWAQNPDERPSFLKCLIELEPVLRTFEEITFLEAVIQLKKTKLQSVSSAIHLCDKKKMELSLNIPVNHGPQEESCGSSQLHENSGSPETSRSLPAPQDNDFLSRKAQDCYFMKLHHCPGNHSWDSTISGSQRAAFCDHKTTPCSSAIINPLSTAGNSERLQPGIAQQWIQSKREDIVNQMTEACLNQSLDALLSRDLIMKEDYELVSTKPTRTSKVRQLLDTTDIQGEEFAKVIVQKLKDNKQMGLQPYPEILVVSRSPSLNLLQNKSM

Study 1 — read-out: enzyme activity; mode: inhibitor; tested at: 0.5 µM; relative to: control
Target: Inhibitor of nuclear factor kappa-B kinase subunit epsilon (IKBKE, Homo sapiens, UniProt Q14164)
Residues (Q14164 1-716): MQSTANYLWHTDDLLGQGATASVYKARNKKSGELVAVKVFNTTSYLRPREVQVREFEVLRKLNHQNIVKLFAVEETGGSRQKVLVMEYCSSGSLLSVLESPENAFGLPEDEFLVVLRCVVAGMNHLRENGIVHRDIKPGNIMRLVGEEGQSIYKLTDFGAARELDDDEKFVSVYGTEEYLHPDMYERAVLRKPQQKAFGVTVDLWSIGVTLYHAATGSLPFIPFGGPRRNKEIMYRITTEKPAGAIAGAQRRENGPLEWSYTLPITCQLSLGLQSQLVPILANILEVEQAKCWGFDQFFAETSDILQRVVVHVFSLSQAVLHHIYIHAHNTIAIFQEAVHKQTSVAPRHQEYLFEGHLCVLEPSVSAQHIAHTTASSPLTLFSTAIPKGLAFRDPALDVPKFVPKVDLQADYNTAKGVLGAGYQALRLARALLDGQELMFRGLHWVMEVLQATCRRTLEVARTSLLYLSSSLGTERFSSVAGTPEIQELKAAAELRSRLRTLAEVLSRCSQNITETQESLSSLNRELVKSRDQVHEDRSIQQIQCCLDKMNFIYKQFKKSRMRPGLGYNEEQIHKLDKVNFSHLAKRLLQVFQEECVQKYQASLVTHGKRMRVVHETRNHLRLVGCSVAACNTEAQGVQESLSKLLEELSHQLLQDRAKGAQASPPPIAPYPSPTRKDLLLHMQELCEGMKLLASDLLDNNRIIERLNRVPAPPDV
Compound	remaining activity [%]
COc1cc2ncnc(Nc3ccc(O)c(Br)c3)c2cc1OC	94.6
CCOc1nc(NC(=O)Cc2cc(OC)ccc2OC)cc(N)c1C#N	83.7
N#Cc1c(NC(=O)c2cccc3ccccc23)sc2c1CCCC2	94.3
Cc1cc2ncc(-c3ccccc3)nc2cc1C	101
O=C1C(Cl)=C(N2C(=O)CCC2=O)C(=O)c2ccccc21	99.6
Cn1nc2c3c(cccc31)C(=O)c1ccccc1-2	92.3
Nc1cccc(-c2cc3c(Oc4cccc(O)c4)ncnc3[nH]2)c1	88.1

Study 2 — target: XBP1, bZIP domain (human); method: DHFR protein complementation; sample: yeast; relative to: wild-type JUN-FOS pair; reading: higher = stronger binding
Notes: single substitutions, most at no-binding floor
Starting sequence: JUN, bZIP domain (human); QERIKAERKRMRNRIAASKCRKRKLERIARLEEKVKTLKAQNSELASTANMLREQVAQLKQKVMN; partner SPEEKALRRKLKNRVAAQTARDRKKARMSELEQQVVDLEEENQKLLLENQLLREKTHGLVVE
Variant	binding fitness [natural log]
V56L	-0.269
E54R	-1.29
S47I	-0.734
K36W	-1.46
A46V	-0.657
E44G	-1.31
A57N	-0.685
L31R	-1.42

Study 3 — method: aptamer microarray, sandwich; molecule type: DNA with 2'F-ANA; sample: in vitro; tested at: 200 nM; together with: Cy3 exosite-II aptamer, 400 nM; reading: higher = stronger binding; sequence: GGTTGGTGTGGTTGG
Target: Prothrombin, mature alpha-thrombin (F2, Homo sapiens, UniProt P00734)
Notes: whole 15-mer aptamer, many near background
Modification	mean fluorescence intensity [a.u.]
2'F-ANA at 1 2 3 4 7 14 15	82
2'F-ANA at 1 3 5 9 10 11 13 14	43.8
2'F-ANA at 1 4 6 7 10 12 15	55.7
2'F-ANA at 1 3 9 11 12 14	106
2'F-ANA at 1 5 6 8 9 10 12 15	48.3
2'F-ANA at 2 5 7 9 12 13 14 15	68.6
2'F-ANA at 3 4 6 8 9 11 13 14	217
2'F-ANA at 2 5 10 11 14	51.9

Study 4 — SMILES: FC(F)(F)c1ccc2c(c1)nc(-c1cccnc1)n2C1CC1; read-out: cell-free assay; method: competition with immobilised ligand; tested at: 1 µM
target	remaining binding
PIK3CA (Homo sapiens, UniProt P42336, H1047L)	100%
BRAF (Homo sapiens, UniProt P15056, V600E)	100%
Ribosomal protein S6 kinase alpha-5, C-terminal kinase domain (RPS6KA5, Homo sapiens, UniProt O75582)	100%
PNCK (Homo sapiens, UniProt Q6P2M8)	100%
EPHA2 (Homo sapiens, UniProt P29317)	100%
STK35 (Homo sapiens, UniProt Q8TDR2)	100%
FLT3 (Homo sapiens, UniProt P36888, R834Q)	100%
PRKACB (Homo sapiens, UniProt P22694)	100%
RIPK2 (Homo sapiens, UniProt O43353)	100%
LATS1 (Homo sapiens, UniProt O95835)	86%
PKMYT1 (Homo sapiens, UniProt Q99640)	100%
Tyrosine-protein kinase JAK1, JH2 (JAK1, Homo sapiens, UniProt P23458)	85%
CDC42BPA (Homo sapiens, UniProt Q5VT25)	100%
CDK7 (Homo sapiens, UniProt P50613)	100%
STK17B (Homo sapiens, UniProt O94768)	100%
MAP3K5 (Homo sapiens, UniProt Q99683)	96%
ANKK1 (Homo sapiens, UniProt Q8NFD2)	100%

Single results of other studies
Substance	organism	read-out	tested at	notes	endpoint	value
medroxyprogesterone	Sarcocystis neurona	parasite growth	10 µM	second screen	inhibition	6.7%

Excerpt of the above (study 3):
Modification	mean fluorescence intensity [a.u.]
2'F-ANA at 1 5 6 8 9 10 12 15	48.3
2'F-ANA at 2 5 7 9 12 13 14 15	68.6
2'F-ANA at 3 4 6 8 9 11 13 14	217
2'F-ANA at 2 5 10 11 14	51.9
